Experimental data from different studies.
Every numbered part comes from another study and shows a few of its results, in no order.

Series 1
Target: Replicase polyprotein 1ab, main protease (rep, Severe acute respiratory syndrome coronavirus 2, UniProt P0DTD1)
Observed: enzyme activity
Action: inhibitor
Tested at: 20 µM
Notes: hit confirmation, no DTT
SMILES | inhibition [%]
Nc1ccc2cc3ccc(N)cc3nc2c1 | 76.5
C/N=c1/nc(-c2ccccc2)n(-c2ccccc2)s1 | 100
CCN(CC)c1ccc(C(=C2C=CC(=[N+](CC)CC)C=C2)c2ccccc2)cc1 | 86.9

Series 2
Target: Replicase polyprotein 1ab, nsp13 helicase (rep, Severe acute respiratory syndrome coronavirus 2, UniProt P0DTD1)
Action: inhibitor
Tested at: 20 µM
SMILES | inhibition [%]
COc1cc(/C=C/C(=O)N2CCN(CC(=O)N3CCCC3)CC2)cc(OC)c1OC | 2.9
CC(C)(C)c1cc(/C=C(\C#N)C(N)=S)cc(C(C)(C)C)c1O | 0.44
O=C(Cn1c(=O)sc2ccc(Cl)cc21)N1CCN(CCO)CC1 | 3.41
N#C/C(=C\c1ccc(O)c(O)c1)C(N)=O | 2.59
COc1cc([S+](C)[O-])ccc1-c1nc2cccnc2[nH]1 (stereo not shown) | 0.78
O=c1[nH]c(=O)n([C@H]2C[C@H](O)[C@@H](CO)O2)cc1Br | 3.94
O=c1[nH]c(=O)n([C@H]2C[C@H](O)[C@@H](CO)O2)cc1I | 3.66
Cc1c(C2CCN(CCc3ccccc3)CC2)noc1-c1ccc(Cl)cc1 | -0.1
C[C@H](O)[C@H](O)[C@H]1CNc2nc(N)[nH]c(=O)c2N1 | 4.72
COc1cnc(-n2cnc(C)n2)c2[nH]cc(C(=O)C(=O)N3CCN(C(=O)c4ccccc4)CC3)c12 | 0.6
CC[C@]1(O)C[C@@H]2CN(CCc3c([nH]c4ccccc34)[C@@](C(=O)OC)(c3cc4c(cc3OC)N(C)[C@H]3[C@@](O)(C(=O)OC)[C@H](OC(C)=O)[C@]5(CC)C=CCN6CC[C@]43[C@@H]65)C2)C1 | 0.26
O=c1[nH]c2ccc(Cl)cc2c(N[C@@H]2CN3CCC2CC3)c1-c1nc2ccccc2[nH]1 | 37.4
CNC(=O)c1cc(Oc2ccc(NC(=O)Nc3ccc(Cl)c(C(F)(F)F)c3)cc2)ccn1 | 15.3
COc1ccc(C[C@@H](C)NC[C@H](O)c2ccc(O)c(NC=O)c2)cc1 (racemic) | 3.09
COc1ccccc1CN[C@H]1CCCN[C@H]1c1ccccc1 | 2.47
Cc1ccc(Cl)c(OCC(O)CNC(C)C)c1 (stereo not shown) | -2.44
CCCN1C[C@H](NS(=O)(=O)N(CC)CC)C[C@H]2Cc3c(O)cccc3C[C@@H]21 | 2.95
C#C[C@]1(OC(C)=O)CC[C@H]2[C@@H]3CCC4=CC(=NO)CC[C@@H]4[C@H]3CC[C@@]21CC (mixture of isomers) | -2.99
CCCN(CCC)CCc1cccc2c1CC(=O)N2 | -4.25
CC1(C)CCC(C)(C)c2cc(C3(c4ccc(C(=O)O)cc4)OCCO3)ccc21 | 2.1
C[C@]12CC[C@@H]3c4ccc(O)cc4CC[C@H]3[C@@H]1[C@@H](O)[C@@H](O)[C@@H]2O | 5.85
CN1CC[C@@H](NC(=O)Nc2ccc(C#N)cc2)C[C@@H]1c1nc2ccccc2[nH]1 | 1.42
CC(C(=O)O)c1ccc(C(=O)c2ccccc2)s1 (stereo not shown) | 5.42
CCC/N=C1\S/C(=C\c2ccc(OC[C@H](O)CO)c(Cl)c2)C(=O)N1c1ccccc1C | 2.27
N[C@H](C(=O)O)c1ccc(C(=O)O)c(O)c1 | 4.36

Series 3
Target: Histone acetyltransferase KAT6A, winged helix 2, GST fusion (KAT6A, Homo sapiens, UniProt Q92794, residues 85-181)
Method: protein binding microarray
Molecule type: double-stranded DNA, one strand shown
Sample: in vitro
Tested at: not given
Notes: 8-mer, flanks averaged, mean of 2 arrays, mostly near background
Baseline: not given
Direction: higher = stronger binding
Target sequence (chain): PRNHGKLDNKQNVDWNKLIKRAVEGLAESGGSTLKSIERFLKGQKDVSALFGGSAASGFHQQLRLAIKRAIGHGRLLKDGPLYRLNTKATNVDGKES
Strand | E-score
ACAACTAA | 0.0673
GCCTACTA | -0.047
CGTACAGC | -0.116
AGGGGCCG | 0.0836
GGCCGCTA | 0.0841
AATAACAG | 0.00626
CGTAAACC | -0.237
GGGCGGAC | 0.097

Series 4
Target: Interferon regulatory factor 7, full length, phosphomimetic (IRF7, Homo sapiens, UniProt Q92985, residues 1-503, S101K/S471D/S472D/S475D/S476D/S477D/S483D/S484D/S487D)
Method: protein-binding microarray
Molecule type: double-stranded DNA, one strand shown
Sample: in vitro
Tested at: 250 nM
Notes: 60-bp whole probe
Added: salmon DNA 0.4 mg/ml
Baseline: random background probes
Direction: higher = stronger binding
Constant ends, left off below: GCCTAGCAC … GTCTTGATTCGCTTGACGCTGCTG
Residues (chain): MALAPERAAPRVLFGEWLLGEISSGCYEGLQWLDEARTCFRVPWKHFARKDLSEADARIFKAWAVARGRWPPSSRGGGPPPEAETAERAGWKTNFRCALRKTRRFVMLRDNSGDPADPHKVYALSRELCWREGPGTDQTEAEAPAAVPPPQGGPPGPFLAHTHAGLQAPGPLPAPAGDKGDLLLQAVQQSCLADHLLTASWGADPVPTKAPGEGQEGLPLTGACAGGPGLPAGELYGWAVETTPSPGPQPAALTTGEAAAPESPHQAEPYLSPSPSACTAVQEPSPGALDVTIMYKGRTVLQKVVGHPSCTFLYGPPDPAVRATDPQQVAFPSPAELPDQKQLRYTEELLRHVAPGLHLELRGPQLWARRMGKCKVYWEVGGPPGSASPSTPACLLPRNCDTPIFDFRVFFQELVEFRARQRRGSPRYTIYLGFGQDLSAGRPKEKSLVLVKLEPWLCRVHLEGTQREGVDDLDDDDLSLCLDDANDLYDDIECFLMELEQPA
Strand | log fluorescence
TTAGATATCGGGACTGGATGAGTGCTA | -0.152 z-score
TTAGGACTGGGACTTGGTTAGTGCTAG | -0.00758 z-score
TTAGGTTTGGGTCTCGGTTAGTGCTAG | 1.19 z-score
TTAGGACTGGGGTTTCGGTTCGTGCTA | 9.09 z-score
TTAGGATTCGGTATCGGTTAGTGCTAG | 4.19 z-score
TTAGGTTTCGGACTAGGTTAGTGCTAG | 4.52 z-score
GACGATATCAGTATCTAGACGTGCTAG | -0.218 z-score
TAATGCTTCTGTATTCATGAGTGCTAG | -0.424 z-score

Series 5
Cell line: HEK-293T
Observed: pseudovirus infection
Method: FDA-approved drug library screen
Organism: VSV pseudotyped with SARS-CoV-2 spike
Tested at: 10 µM
Time: 16 h
Baseline: vehicle-treated
SMILES | GFP-positive cells [%]
COc1ccc(C(=O)CC(=O)c2ccc(C(C)(C)C)cc2)cc1 | 82.9
CCCNC(C)C(=O)Nc1c(C)csc1C(=O)OC (stereo not shown) | 93.2
C[C@H]1CN(C[C@H](Cc2ccccc2)C(=O)NCC(=O)O)CC[C@@]1(C)c1cccc(O)c1 | 73.3

Series 6
Target: RING finger protein unkempt homolog, zinc fingers 1-6, GST-SBP tag (UNK, Homo sapiens, UniProt Q9C0B0, residues 30-357)
Sequence of UniProt Q9C0B0 (30-357, looked up): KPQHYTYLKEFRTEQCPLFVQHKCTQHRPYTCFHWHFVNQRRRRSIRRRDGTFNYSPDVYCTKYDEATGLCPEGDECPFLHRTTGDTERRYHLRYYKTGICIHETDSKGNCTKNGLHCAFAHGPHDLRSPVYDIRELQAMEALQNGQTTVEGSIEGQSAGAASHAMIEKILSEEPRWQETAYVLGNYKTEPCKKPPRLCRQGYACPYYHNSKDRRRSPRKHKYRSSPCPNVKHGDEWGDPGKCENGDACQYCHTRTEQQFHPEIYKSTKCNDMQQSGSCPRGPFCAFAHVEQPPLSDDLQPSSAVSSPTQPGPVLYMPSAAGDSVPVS
Method: RNA Bind-n-Seq
Molecule type: RNA
Sample: in vitro
Tested at: not given
Notes: RNA with constant flanks, human and mouse sites, ends assumed
Baseline: input RNA pool
Direction: higher = stronger binding
Strand | bound/input enrichment [ratio]
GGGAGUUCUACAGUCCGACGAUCCAUUAAUUUUAAAUUAAGUAAACUAAAUAAAUAAAAAUAAACUUUUUUAAAGAUGUGUGGUUUAGGAUGGGCUUUAAGAAAGUGAGUCUACCAAAUGCCAGUUAAAGAGCAAGUUAGGGGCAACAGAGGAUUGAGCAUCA | 2.13
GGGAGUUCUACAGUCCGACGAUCCCAGACAAGAUCGAUUAUUUCUCCCUUGAUCCCCUCAACAUCAAACAGAACAACAAGCAGGCUUUUGAUGGCUUCGCUGCCCUGGGUGUGUCUCGGCUGCUCGAGCCGGCGGACAUGGUACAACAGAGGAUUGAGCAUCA | 0.191
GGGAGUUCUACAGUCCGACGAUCACCAUUGGAUUUAAUGUAGAGACGGUGACGUACAAAAACCUUAAAUUCCAAGUCUGGGAUUUAGGAGGACAGACAAGUAUCAGGCCAUACUGGAGAUGUUACUAUUCAAACACAGAUGCACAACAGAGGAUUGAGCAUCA | 0.274
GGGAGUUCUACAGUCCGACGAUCGAAAAUCACCCUUAUCAAACAGCUUGCCAAAAGUGUCAUCGUGGGCUGGGAGCCCCCUGCUGUGCCUCCCGGCUGGGGCACCGUGAGCAGUUAUAAUGUGCUGGUGGACAAAGAGACACGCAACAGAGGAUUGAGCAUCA | 0.305
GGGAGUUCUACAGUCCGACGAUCCGUUUUUUAUUGGAAAUGAGCACACAUUUACACAGGAGACCAAAAUCCACUUGCUAUUUCAAUAGCCUGACUGUUUCUGAGCAGGUAGAGAAAUAAACAUGGAAAACAAAGACAGGGUGACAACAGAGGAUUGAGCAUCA | 0.512
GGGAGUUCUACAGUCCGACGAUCUGGAAGAAGCUUUGUCAGUACCAUUUUGCUGAAAAGCAGUUUUGUAGACAUUUGAUCCUUUCAGAAAAAGGUCAUAUUGAAUGGAAGUUGAUGUACUUUGCACUUCAGAAACAUUACCCACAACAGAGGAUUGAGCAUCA | 0.101
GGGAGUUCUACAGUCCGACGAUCUUCCCCCUACUGAGACAGUUCCUCAGGUCAAAAAAGAAAAACAUAGCACACAAGCUAAAAAUAGAGCAAAAAGGAAACCUCCAAAAGGAAUGUUUCUUUCUCAAGAAGAUGUGGAGGCUGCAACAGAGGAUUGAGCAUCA | 0.695
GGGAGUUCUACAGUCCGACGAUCUUAAUAACAAGCAACUGCACAUCAAAGUCAGUUCCUGUAAGGAGACGUUCAUUUGAAUUUUUAGAUUUGCUGCUGCAAGAAUGGCAGACUCAUUCACUGGAAAGACAUGCAGCUGUUUUGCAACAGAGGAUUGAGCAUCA | 0.23

Some of these lines once more (series 3):
Strand | E-score
GCCTACTA | -0.047
CGTACAGC | -0.116
AGGGGCCG | 0.0836
GGCCGCTA | 0.0841
AATAACAG | 0.00626
CGTAAACC | -0.237
GGGCGGAC | 0.097
